Measurements of several laboratories.
Numbered parts are unrelated; each lists some results of a single study. Changes are numbered by the printed parent chain.
Chain of UniProt P29597 (whole entry, looked up): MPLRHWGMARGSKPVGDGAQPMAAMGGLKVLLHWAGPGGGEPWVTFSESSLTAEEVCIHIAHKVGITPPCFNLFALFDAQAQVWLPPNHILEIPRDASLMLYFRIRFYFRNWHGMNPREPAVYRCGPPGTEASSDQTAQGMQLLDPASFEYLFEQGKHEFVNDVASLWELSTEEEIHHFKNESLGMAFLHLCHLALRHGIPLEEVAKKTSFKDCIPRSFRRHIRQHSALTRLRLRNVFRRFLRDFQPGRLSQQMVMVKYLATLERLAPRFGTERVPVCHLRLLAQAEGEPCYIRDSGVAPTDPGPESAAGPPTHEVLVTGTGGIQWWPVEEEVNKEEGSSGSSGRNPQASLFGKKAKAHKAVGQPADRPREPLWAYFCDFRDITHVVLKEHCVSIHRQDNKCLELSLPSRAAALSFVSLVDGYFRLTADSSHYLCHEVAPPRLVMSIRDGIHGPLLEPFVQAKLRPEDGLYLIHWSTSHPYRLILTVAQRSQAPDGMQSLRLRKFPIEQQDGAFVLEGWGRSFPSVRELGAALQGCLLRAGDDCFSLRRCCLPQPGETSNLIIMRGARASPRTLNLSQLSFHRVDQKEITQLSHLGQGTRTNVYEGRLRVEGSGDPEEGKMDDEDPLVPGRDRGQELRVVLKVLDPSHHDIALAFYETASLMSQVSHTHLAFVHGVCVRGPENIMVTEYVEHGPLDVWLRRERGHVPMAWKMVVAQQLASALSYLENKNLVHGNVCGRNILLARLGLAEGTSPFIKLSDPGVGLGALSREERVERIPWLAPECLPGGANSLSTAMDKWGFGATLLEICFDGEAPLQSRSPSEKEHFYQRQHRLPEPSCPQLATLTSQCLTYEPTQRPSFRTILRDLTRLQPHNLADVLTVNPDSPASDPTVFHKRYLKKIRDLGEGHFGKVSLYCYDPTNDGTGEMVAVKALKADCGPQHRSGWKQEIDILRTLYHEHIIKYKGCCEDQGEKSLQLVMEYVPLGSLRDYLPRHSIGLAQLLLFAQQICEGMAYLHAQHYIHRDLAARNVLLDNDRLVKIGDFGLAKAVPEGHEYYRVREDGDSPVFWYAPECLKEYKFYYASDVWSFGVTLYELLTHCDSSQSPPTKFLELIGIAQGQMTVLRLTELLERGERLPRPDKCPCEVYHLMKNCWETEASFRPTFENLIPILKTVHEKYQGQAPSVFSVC

Block 1 — target: Sox-I, HMG box (Salpingoeca helianthica); technique: Spec-seq; form: double-stranded DNA, one strand shown; matrix: in vitro; concentration: not given; setting: whole probe, mean of replicates; relative to: not given; direction: lower = stronger binding; measurement: relative binding energy; constant ends, left off below: GAGTCGTCTCGTCAGCAC … CCGTAGAGCACTCAGGTC
Residues (chain): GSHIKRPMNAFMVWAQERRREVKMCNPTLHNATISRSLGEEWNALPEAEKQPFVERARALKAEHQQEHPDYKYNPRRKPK
ACAAGTT: -0.419 ln ratio
CATAGAC: 0.368 ln ratio
CATCCTG: 0.781 ln ratio
CATATAT: 0.389 ln ratio
CATTAGA: 0.58 ln ratio
CTCAGTT: -0.0526 ln ratio
CATCACC: 0.877 ln ratio
CATCCAA: 0.545 ln ratio

Block 2 — technique: aptamer microarray, sandwich; form: DNA with 2'F-ANA; matrix: in vitro; concentration: 200 nM; added: Cy3 exosite-II aptamer, 400 nM; direction: higher = stronger binding; measurement: mean fluorescence intensity; oligonucleotide: GGTTGGTGTGGTTGG
Target: Prothrombin, mature alpha-thrombin (F2, Homo sapiens, UniProt P00734)
Setting: whole 15-mer aptamer, many near background
2'F-ANA at 3 7 9 10 14 15: 432 a.u.
2'F-ANA at 1 3 4 5 6 11 14: 45.2 a.u.
2'F-ANA at 2 6 7 9 12 13 14 15: 140 a.u.
2'F-ANA at 3 5 6 7 11 12 13 14: 56.1 a.u.
2'F-ANA at 1 2 4 7 8 9 12 13: 210 a.u.
2'F-ANA at 1 2 3 7 8 15: 340 a.u.
2'F-ANA at 1 2 3 10 12 14 15: 52.3 a.u.
2'F-ANA at 2 3 6 7 8 9 11 12 13 14: 322 a.u.

Block 3 — technique: DHFR PCA, deep sequencing; matrix: yeast; added: (+)-ABA 0.11 µM; relative to: wild-type fitted maximum; direction: higher = stronger binding; measurement: relative binding score
Target: ABI1, truncated, D143A, DHFR fusion (Arabidopsis thaliana)
Setting: methotrexate growth selection, single substitutions
Parent: PYL1, truncated, DHFR fusion (Arabidopsis thaliana); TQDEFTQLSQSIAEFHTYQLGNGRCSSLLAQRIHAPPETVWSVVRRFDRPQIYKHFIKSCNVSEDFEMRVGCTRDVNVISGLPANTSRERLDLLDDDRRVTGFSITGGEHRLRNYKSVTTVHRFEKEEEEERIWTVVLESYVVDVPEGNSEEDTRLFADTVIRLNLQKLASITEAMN
V145N: -7.3%
P50M: 2.37%
N61P: 3.27%
K58E: 11%
R123S: 52.9%
L166V: 2.11%
T39D: 15%
A170E: -7.44%

Other studies, line by line
O=C1C(Cl)=C(N2C(=O)CCC2=O)C(=O)c2ccccc21  remaining activity (Non-receptor tyrosine-protein kinase TYK2 (TYK2, Homo sapiens, UniProt P29597); enzyme activity, inhibitor; 0.5 µM; relative to: control): 102%

For quick reference, copied from above (block 1):
CATATAT: 0.389 ln ratio
CATCACC: 0.877 ln ratio
CATAGAC: 0.368 ln ratio
